Measurements gathered from unrelated publications.
Protocols differ between the studies behind these lines. Numbers after ± are the reported error.

CN(Cc1cn(-c2ccc(OCCCF)cc2)nn1)S(=O)(=O)c1ccc(CN2CCOCC2)cc1  inhibition (MDA-MB-231; chemotaxis, antagonist; 10 nM, 22 h, together with: CXCL12 200 ng/mL): > 65%
C[C@@]12C3=C(C(=O)c4occ(c41)[C@@H](O)[C@@H]1O[C@@H]12)[C@@H]1CCC(O)[C@@]1(C)CC3 (stereo partly drawn)  ROS level (MDA-MB-231; DCFH-DA fluorescence; concentration not given, unit not given; relative to: untreated): 1.34
Cc1ncsc1-c1ccc([C@H](C)NC(=O)[C@@H]2C[C@@H](O)CN2C(=O)[C@@H](NC(=O)COCCOCCOCCOCCNC(=O)c2ccc(CN3CCN(S(=O)(=O)c4ccc(NC(=S)NCc5cccnc5)cc4)CC3)cc2)C(C)(C)C)cc1  MDSC expansion (mouse bone marrow cells; concentration not given, together with: co-culture with MC-38 cells): inhibited
C[C@]12CCC3=C(C(=O)c4occ5c4[C@]3(C)[C@H]3O[C@H]3C5=O)[C@@H]1CCC2=O  ROS level (MDA-MB-231; DCFH-DA fluorescence; concentration not given, unit not given; relative to: untreated): 1.21
O=C(Cc1cccs1)NCB(O)O  MIC of ceftazidime (Escherichia coli DH10B expressing blaADC; agar dilution; 4 µg/mL, MIC of ceftazidime, together with: ceftazidime): 8 µg/mL
N#Cc1ccc2cc3c(=O)[nH]c(=O)nc-3n(-c3cccc(-c4nnn[nH]4)c3)c2c1  GI50 (DU-145; cell growth, ATPlite; 72 h): 85.7 µM
O=C(Cc1cccs1)NC(B(O)O)c1cccc(C(=O)O)c1 (stereo not drawn)  MIC of ceftazidime (Escherichia coli DH10B expressing blaADC; agar dilution; 4 µg/mL, MIC of ceftazidime, together with: ceftazidime): 4 µg/mL
CC1(C)CC[C@]2(C(=O)O)CC[C@]3(C)C(=CC[C@@H]4[C@@]5(C)CC[C@H](OC(=O)NCc6ccccc6)C(C)(C)[C@@H]5CC[C@]43C)[C@@H]2C1  Aβ reduction (N2a cells expressing human APP695; ELISA; conditioned medium; concentration not given): 10 to 40%
COc1ccc(C(O)(c2ccccc2)c2ccccc2)cc1  EC50 (HeLa; mitotic arrest; 4 h): 49 µM
[O-][S+](CCCCOc1ccc(C(=C2C3CC4CC(C3)CC2C4)c2ccc(O)cc2)cc1)CCCC(F)(F)C(F)(F)F (stereo not drawn)  IC50 (MCF7 inducible ERα D538G; cell proliferation, inhibitor, MTT; 5 days): 20 nM
O=C(C=Cc1ccc(-c2ccccc2)cc1)Nc1ccc(Oc2ccccc2)c(S(=O)(=O)O)c1  IC50 (HEK293 AP-1-luc; AP-1 reporter gene, inhibitor; 24 h, together with: 20% serum): 630 nM
[O-][S+](CCCCOc1ccc(C(=C2C3CCCC2CCC3)c2ccc(O)cc2)cc1)CCCC(F)(F)C(F)(F)F (stereo not drawn)  IC50 (MCF7 inducible ERα D538G; cell proliferation, inhibitor, MTT; 5 days): 18 nM
CC(C)C(C(=O)N(Cc1ccc(C2CCCCC2)cc1)c1ccc(C(=O)O)cc1)N(C)S(=O)(=O)c1c(F)c(F)c(F)c(F)c1F (stereo not drawn)  IC50 (Pa03C spheroids, tumour alone; cell growth, Alamar blue; 12 days, 3D culture): 15200 ± 2000 nM
O=C(Nc1ccccc1OS(=O)(=O)c1ccc(OC(F)(F)F)cc1)c1cnccn1  inhibition (MCF7 transfected with human P2X7R; cell proliferation, antagonist; 10 µM, together with: Bz-ATP 100 µM; relative to: control): 70%
O=S(=O)(NCc1[nH]nnc1CNC1CCCCC1)c1ccc(Cl)c(Cl)c1  imipenem MIC (Escherichia coli BL21 parental; inhibitor; up to 150 µM, together with: imipenem): no effect
CCCCCCCCCCCCNC(=O)N[C@H](C(=O)N[C@H]1/C=C/CCNC(=O)/C=C/[C@H](C)NC1=O)C(C)C  EC50 (Granta; cell viability, CellTiter-Glo; 24 h): 0.0993 ± 0.0048 µM
Cc1ccc(C(C)C)cc1Oc1nccc(-c2c(-c3ccc(C(F)(F)F)cc3)ncn2[C@H]2CC[C@@H](N)C2)n1  mRNA level (TSEC; qPCR, item: CCL2; 1.25 µM, together with: LPS): decreased
COc1ccc2c(c1)c(CC(=O)NCCCCNC(=O)CCC(=O)OC1c3cc4c(cc3C(c3cc(OC)c(OC)c(OC)c3)C3C(=O)OCC13)OCO4)c(C)n2C(=O)c1ccc(Cl)cc1 (stereo not drawn)  minimum cell number (1483 HNSCC cells; WST-1; 48 h; relative to: vehicle): ~35%
